# Measured values pooled from the literature.
# Lines come from different studies, so protocols differ. “And” joins repeats or separate records; there may be more than shown. Numbers after ± are the reported error.
# Sequence of UniProt O00329 (whole entry, looked up): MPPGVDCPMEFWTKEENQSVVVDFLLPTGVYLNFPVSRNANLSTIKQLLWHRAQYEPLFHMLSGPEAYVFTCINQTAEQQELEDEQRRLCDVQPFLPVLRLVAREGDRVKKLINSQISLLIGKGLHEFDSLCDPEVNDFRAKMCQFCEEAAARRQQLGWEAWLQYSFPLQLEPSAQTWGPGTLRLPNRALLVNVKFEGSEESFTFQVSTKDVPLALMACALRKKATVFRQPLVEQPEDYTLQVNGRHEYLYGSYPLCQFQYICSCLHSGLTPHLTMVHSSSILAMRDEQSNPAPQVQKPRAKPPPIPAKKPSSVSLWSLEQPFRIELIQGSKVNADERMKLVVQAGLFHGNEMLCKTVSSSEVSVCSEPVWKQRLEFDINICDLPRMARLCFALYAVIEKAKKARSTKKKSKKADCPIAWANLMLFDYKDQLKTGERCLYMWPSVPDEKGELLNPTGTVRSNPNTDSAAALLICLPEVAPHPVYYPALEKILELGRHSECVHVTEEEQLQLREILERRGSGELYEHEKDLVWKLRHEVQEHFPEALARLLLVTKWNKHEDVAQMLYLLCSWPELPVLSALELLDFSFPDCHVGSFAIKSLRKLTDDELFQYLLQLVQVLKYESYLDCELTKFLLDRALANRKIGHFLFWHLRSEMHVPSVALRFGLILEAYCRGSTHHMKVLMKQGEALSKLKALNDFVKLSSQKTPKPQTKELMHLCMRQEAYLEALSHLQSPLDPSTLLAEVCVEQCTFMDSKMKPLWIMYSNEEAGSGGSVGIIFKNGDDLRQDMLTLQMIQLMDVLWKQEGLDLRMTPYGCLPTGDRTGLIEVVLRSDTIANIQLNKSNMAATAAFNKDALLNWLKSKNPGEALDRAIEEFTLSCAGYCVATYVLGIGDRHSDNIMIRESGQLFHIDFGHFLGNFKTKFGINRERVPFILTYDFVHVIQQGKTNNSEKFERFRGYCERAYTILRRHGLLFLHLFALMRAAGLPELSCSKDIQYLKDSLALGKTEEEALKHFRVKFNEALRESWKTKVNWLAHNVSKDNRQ
# Sequence of UniProt Q14160 (whole entry, looked up): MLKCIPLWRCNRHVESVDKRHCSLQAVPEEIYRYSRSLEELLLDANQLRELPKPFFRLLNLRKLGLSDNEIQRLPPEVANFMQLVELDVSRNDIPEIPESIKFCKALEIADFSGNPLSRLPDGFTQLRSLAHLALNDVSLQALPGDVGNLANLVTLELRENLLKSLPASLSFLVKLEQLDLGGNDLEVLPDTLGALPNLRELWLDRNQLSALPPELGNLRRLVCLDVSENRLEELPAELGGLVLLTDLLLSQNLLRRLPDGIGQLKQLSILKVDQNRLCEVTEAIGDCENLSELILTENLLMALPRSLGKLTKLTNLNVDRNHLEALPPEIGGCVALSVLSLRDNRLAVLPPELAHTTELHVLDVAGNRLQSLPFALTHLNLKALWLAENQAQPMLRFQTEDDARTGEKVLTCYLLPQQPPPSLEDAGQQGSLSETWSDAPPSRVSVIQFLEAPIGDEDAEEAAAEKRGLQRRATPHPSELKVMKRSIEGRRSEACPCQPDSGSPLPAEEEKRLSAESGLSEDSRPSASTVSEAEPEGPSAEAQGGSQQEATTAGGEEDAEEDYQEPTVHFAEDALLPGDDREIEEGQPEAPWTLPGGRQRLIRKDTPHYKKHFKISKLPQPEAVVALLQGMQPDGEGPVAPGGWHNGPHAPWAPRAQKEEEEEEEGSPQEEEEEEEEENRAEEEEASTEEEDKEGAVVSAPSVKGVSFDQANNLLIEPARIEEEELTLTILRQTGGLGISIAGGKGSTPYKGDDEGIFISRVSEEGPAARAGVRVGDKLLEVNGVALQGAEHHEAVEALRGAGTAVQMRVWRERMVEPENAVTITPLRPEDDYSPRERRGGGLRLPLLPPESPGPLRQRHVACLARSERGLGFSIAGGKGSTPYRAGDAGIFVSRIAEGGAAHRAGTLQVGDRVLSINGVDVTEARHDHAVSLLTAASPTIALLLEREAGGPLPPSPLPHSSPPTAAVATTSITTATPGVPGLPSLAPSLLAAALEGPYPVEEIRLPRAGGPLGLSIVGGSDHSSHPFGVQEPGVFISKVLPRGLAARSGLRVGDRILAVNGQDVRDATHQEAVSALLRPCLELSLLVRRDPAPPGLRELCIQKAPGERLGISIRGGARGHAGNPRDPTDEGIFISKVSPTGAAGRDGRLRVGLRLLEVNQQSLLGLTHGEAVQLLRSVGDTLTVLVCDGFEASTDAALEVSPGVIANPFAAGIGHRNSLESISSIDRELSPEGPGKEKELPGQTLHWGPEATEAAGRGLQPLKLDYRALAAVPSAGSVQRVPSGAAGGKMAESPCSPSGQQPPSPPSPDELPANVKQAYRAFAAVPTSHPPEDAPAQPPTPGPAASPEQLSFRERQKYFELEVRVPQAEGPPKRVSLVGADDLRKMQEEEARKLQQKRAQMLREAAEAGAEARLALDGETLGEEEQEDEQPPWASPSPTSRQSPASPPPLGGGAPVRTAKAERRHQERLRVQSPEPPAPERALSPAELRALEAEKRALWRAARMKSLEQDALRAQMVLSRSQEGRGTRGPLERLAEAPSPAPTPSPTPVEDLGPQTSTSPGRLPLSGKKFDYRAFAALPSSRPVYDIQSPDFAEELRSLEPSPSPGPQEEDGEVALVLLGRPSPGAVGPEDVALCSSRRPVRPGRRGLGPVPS
Structure (SMILES),target or system,test,test system,conditions,scale,endpoint,value
COc1cccc(Oc2ccccc2NC(=O)CNC(=O)c2cccc3ccccc23)c1,,,"esterase-deficient SCID mice, male","oral, 100 mg/kg/day, 14 days, toxicity study",,serum cholesterol,42 mg/dL and 53 mg/dL and 36 mg/dL
COc1ncccc1-c1cnn2ccc(N3CCN(C(=O)OC(C)C)CC3)nc12,,,"mouse nerve ligation model, plasma","oral, 10 mg/kg, 120 min after last dose, repeat dosing day 4",,drug concentration,1.9 µM
CCc1ccc(CC/C=C/c2ccc3c(c2)C(=O)CC3)cc1,,,"Sprague-Dawley rat, female, blood","oral, 30 mg/kg/day, 14 days",,platelet distribution width,48.1%
CC1(C)c2nc(-c3ccc(F)cc3)c(Nc3ccc(F)cc3)n2CCN1C(=O)CN,,,"NMRI mouse Plasmodium berghei-infected, blood","oral, 2 mg/kg, 24 h, monotherapy",,concentration at 24 h,0.012 µM
CC(C)CC(=O)OC[C@H]1O[C@@](C#N)(c2ccc3c(N)ncnn23)[C@H](O)[C@@H]1O,"ATP-dependent translocase ABCB1 (ABCB1, Homo sapiens, UniProt P08183)",,Caco-2,"9 µM, 2 h",,Papp B to A,11.7 nm/s
O=C(O)CCCOc1ccc(F)cc1-c1cc(-c2ccccc2C(F)(F)F)n(-c2ccccc2)n1,,,"female Crl:CD(SD) rats, heart","intravenous, 25 µg/kg, 1 d",,relative organ weight,0.37 ± 0.03 g%
Cn1cc(-c2nc(N[C@@H]3CCCC[C@@H]3N)c(F)c3c2C(=O)NC3)cn1,,measured: Gastrointestinal haemorrhage,patients with relapsed or refractory AML,"oral, 100 mg once daily",,hemorrhagic adverse events,14%
COc1ccc(N2C(=O)N(c3c(C)cccc3Cl)Cc3cnc(Nc4ccc(C5CCN(C)CC5)cc4OC)nc32)nc1,"Phosphatidylinositol 4,5-bisphosphate 3-kinase catalytic subunit delta isoform (PIK3CD, Homo sapiens, UniProt O00329)","kinase activity, inhibitor",,"0.5 µM, kinase PI3K-DELTA",,inhibition,9%
CCN1CCN(Cc2ccc(Nc3ncc(F)c(-c4cc(F)c5nc6n(c5c4)[C@H](C)CCC6)n3)nc2)CC1,,Phase Ia dose escalation,patients with advanced solid tumours,"dose not given, monotherapy, any grade",,blood creatinine increased incidence,75%
CC(C)[C@@H]1NC(=O)CNC(=O)[C@H](CC(N)=O)NC(=O)[C@H](CCCNC(=N)N)NC(=O)[C@H](Cc2ccc(O)cc2)NC(=O)[C@H](C(C)C)NC(=O)[C@@H](NC(=O)[C@@H](NC(=O)[C@H](CC(N)=O)NC(=O)[C@H](Cc2c[nH]c3ccccc23)NC(=O)[C@H](C)NC(=O)[C@H](Cc2ccccc2)NC(=O)CN)C(C)C)CSSC[C@@H](C(=O)N[C@@H](Cc2cnc[nH]2)C(=O)N[C@@H](CCCNC(=N)N)C(=O)N[C@@H](CCCNC(=N)N)C(=O)N[C@@H](C)C(=O)N[C@@H](CC(N)=O)C(N)=O)NC(=O)[C@H](C(C)C)NC(=O)[C@H](CCCNC(=N)N)NC1=O,,HPLC,trypsin,"2560 µM, 0.50 h, added: trypsin 1 % w/v",,remaining peptide,42.8% and 47.2% and 44.1%
C[C@@H](NC(=O)N1C(=O)[C@H](Cc2ccnc(N)c2)[C@H]1C(=O)O)C1CCCCC1,,,healthy adult Chinese volunteers,"continuous intravenous infusion, 1.0 mg/kg/h, 5-day infusion, CTCAE 5.0 grading",,drug-related abnormal liver function,0%
O=C1OC[C@H]2OC(O)[C@H](O)[C@@H](O)[C@@H]2OC(=O)c2cc(O)c(O)c(O)c2-c2c(O)c(O)c3oc(=O)c4c(c(O)c(O)c5oc(=O)c2c3c54)-c2c1cc(O)c(O)c2O (mixture of isomers),,,BALB/c mice,"1000 mg/kg/day, 28 days, subacute toxicity study",,liver weight,1.32 g
[O-][S+]1CCc2nc(N3CCC(c4ncc(Cl)cn4)CC3)nc(NC3(CO)CCC3)c21 (centres unmarked),,,idiopathic pulmonary fibrosis patients,18 mg twice daily,,Somnolence adverse events,10%
O=c1ccc2ncc(=O)n3c2n1C[C@H]3CN1CCC(NCc2cc3c(cn2)OCCC3)CC1,,,"healthy human volunteers, urine","oral, dose not given, added: rifampicin",baseline: compound alone,decrease in AUC(0-24),~56%
O=C1Nc2cc3[nH]nc(-c4ccncc4)c3cc2CN1Cc1ccccc1,,measured: increased GGT,patients with advanced solid tumours,"intravenous, dose not given, schedules 1 and 2",,patients with grade ≥3 TEAE,15%
O=C(Nc1cnccc1Cl)N1CCN(Cc2ccc3c(c2)OC(F)(F)O3)CC1,"central imidazoline I2 receptor, rat",binding,,"10 µM, added: [3H]idazoxan",,inhibition,-4%
O[C@H]1CCCN[C@@H]1CCCn1cnc2c(Cl)c(Cl)ccc21,,,"healthy humans, plasma","oral, 150 mg twice daily",,terminal half-life,4.09 h
COc1cc2c(Oc3ccc4[nH]c(C)cc4c3F)ccnc2cc1OCC1(N)CC1,,,paediatric recurrent refractory sarcoma,"concentration not given, whole group",,grade 1 or 2 Appendicitis,0%
C[C@@H]1NC(=O)[C@H](CCCCNC(=O)CO/N=C/C(=O)NCCCC[C@@H]2NC(=O)[C@@H](Cc3ccccc3)NC(=O)[C@H](CC(=O)O)NC(=O)CNC(=O)[C@H](CCCNC(=N)N)NC2=O)NC(=O)CNC(=O)[C@@H]2CCCN2C(=O)[C@H](CCCCNC(=O)CO/N=C/C(=O)NCCCC[C@@H]2NC(=O)[C@@H](Cc3ccccc3)NC(=O)[C@H](CC(=O)O)NC(=O)CNC(=O)[C@H](CCCNC(=N)N)NC2=O)NC(=O)[C@H](CCCCNC(=O)[C@H](CCCCN)NC(=O)[C@H](Cc2ccccc2)NC(=O)CNC(=O)CN2CCCNCCNCCCNCC2)NC(=O)[C@H](CCCCNC(=O)CO/N=C/C(=O)NCCCC[C@@H]2NC(=O)[C@@H](Cc3ccccc3)NC(=O)[C@H](CC(=O)O)NC(=O)CNC(=O)[C@H](CCCNC(=N)N)NC2=O)NC(=O)CNC(=O)[C@@H]2CCCN2C(=O)[C@H](CCCCNC(=O)CO/N=C/C(=O)NCCCC[C@@H]2NC(=O)[C@@H](Cc3ccccc3)NC(=O)[C@H](CC(=O)O)NC(=O)CNC(=O)[C@H](CCCNC(=N)N)NC2=O)NC1=O [copper-64 labelled],,PET imaging,"mouse, U-87 MG tumour xenograft, kidney","intravenous, 24 h",,tissue uptake,4.35 ± 0.45 %ID/g
O=C(Nc1ccccc1)C1CCN(C(=O)Oc2cccnc2)CC1,,measured: ear and labyrinth disorders,healthy women,"oral, 100 mg, 9 days",,subjects with adverse event,15.4%
N=C(N)NCCC[C@@H]1NC(=O)[C@H](CCCCNC(=O)c2ccc(CNC34CNCCNCC(N)(CNCCNC3)CNCCNC4)cc2)NC(=O)[C@@H](Cc2ccc(O)cc2)NC(=O)[C@H](CC(=O)O)NC(=O)CNC1=O [copper-64 labelled],,microPET,"male athymic nude mouse, PC-3 tumour, liver","intravenous, 7.4 MBq, 2 h",,tissue uptake,1.49 ± 0.2 %ID/g
COc1ccc2nc3cc(Cl)ccc3c(Nc3cc(CN4CCCC4)c(O)c(CN4CCCC4)c3)c2n1,,,"mouse, blood","intraperitoneal, 57 mg/kg",,mean corpuscular haemoglobin concentration,370 g/L
CCS(=O)(=O)Nc1ccc(Oc2ccc(F)cc2F)c(-c2cn(C)c(=O)c3[nH]ccc23)c1,,fatal fungal sepsis,"human, relapsed/refractory AML","oral, dose not given",,treatment-emergent adverse events,5%
O=S(=O)(Nc1ccccc1)c1ccc(NC(=S)Nc2ccccc2)cc1,,,"mouse, male, spleen","oral, 20 mg/kg daily, 14 days",baseline: body weight,relative organ weight,0.31%
CC1(C)C(C=C(Cl)Cl)C1C(=O)OC(C#N)c1ccc(F)c(Oc2ccccc2)c1 (centres unmarked),,measured: CYP2C9,"human, age 1 year, recombinant human CYP2C9",0.1 µM,,enzyme contribution to clearance,2.07%
CSCC[C@H](NC(=O)[C@H](CCCNC(=N)N)NC(=O)[C@H](CCCCN)NC(=O)[C@H](CCC(=O)O)NC(=O)[C@H](C)NC(=O)[C@@H](N)Cc1ccc(O)cc1)C(=O)N[C@@H](CC(C)C)C(=O)N[C@H](C(=O)N[C@@H](CCC(=O)O)C(=O)N[C@H](C(=O)O)C(C)C)[C@@H](C)O,"Protein scribble homolog, PDZ3 domain (SCRIB, Homo sapiens, UniProt Q14160)","binding, fluorescence polarization",solution,Scribble PDZ3 domain,,Kd,34.8 µM
N[C@@H]1c2ccccc2OC12CCN(c1cnc3c(N4CCCc5ncccc54)n[nH]c3n1)CC2,,,advanced metastatic solid tumour patients,"oral, 50 mg once daily, cycle 1, 21 days",,dose-limiting toxicity,0%
NCCCC[C@@H]1NC(=O)[C@@H](Cc2c[nH]c3ccccc23)NC(=O)[C@H](c2ccccc2)NC(=O)[C@@H]2C[C@@H](OC(=O)NCCN)CN2C(=O)[C@H](Cc2ccccc2)NC(=O)[C@H](Cc2ccc(OCc3ccccc3)cc2)NC1=O,,,"healthy volunteers, female","600 µg twice daily, 2.0 h, post hoc",,placebo-corrected QTcF change,10.8 ms
C=C(CN(C(=O)c1c(C(F)F)nn(C)c1F)C1CC1)c1ccc(Cl)cc1Cl,,static acute toxicity test,zebrafish (Brachydanio rerio),"0.694 mg a.i./L, 24 h",,mortality,0%
COc1ccnc(C(=O)N[C@H]2COC(=O)[C@H](Cc3ccccc3)[C@@H](OC(=O)C(C)C)[C@H](C)OC2=O)c1OCOC(=O)C(C)C,,carcinogenicity,rat,"2 year, highest dose tested",,NOAEL,1010 mg/kg/day
C[C@]1(O)C[C@@](N)(c2ccc(-c3nc4n(c3-c3ccccc3)COc3ccncc3-4)cc2)C1,,,"human, advanced or metastatic solid tumours","intermittent, dose escalation total, any grade",,patients with Stomatitis TEAE,42.9%
CC[C@H](C)[C@H](NC(=O)[C@H](Cc1ccccc1)NC(=O)[C@H](CCC(=O)O)NC(=O)[C@H](CCCNC(=N)N)NC(=O)[C@H](C)NC(=O)[C@H](C)NC(=O)[C@H](CCC(N)=O)NC(=O)[C@H](CCC(=O)O)NC(=O)[C@H](CCC(=O)O)NC(=O)[C@H](CC(C)C)NC(=O)[C@H](Cc1ccc(O)cc1)NC(=O)[C@H](CO)NC(=O)[C@H](CO)NC(=O)[C@@H](NC(=O)[C@H](CC(=O)O)NC(=O)[C@H](CO)NC(=O)[C@@H](NC(=O)[C@H](Cc1ccccc1)NC(=O)[C@@H](NC(=O)CNC(=O)[C@H](CCC(=O)O)NC(=O)[C@H](C)NC(=O)CCc1cnc[nH]1)[C@@H](C)O)[C@@H](C)O)C(C)C)C(=O)N[C@@H](C)C(=O)N[C@@H](Cc1c[nH]c2ccccc12)C(=O)N[C@@H](CC(C)C)C(=O)N[C@H](C(=O)N[C@@H](CCCNC(=N)N)C(=O)NCC(=O)N[C@@H](CCCNC(=N)N)C(=O)N[C@@H](CCCCNC(=O)COCCOCCNC(=O)COCCOCCNC(=O)CC[C@H](NC(=O)CCCCCCCCCCCCCCCCC(=O)O)C(=O)O)C(=O)NCC(=O)NCC(=O)N[C@@H](CO)C(=O)N[C@@H](CCCCNC(=O)[C@H](CCCCNC(=O)[C@H](CCCCNc1c(NCCCCCN(O)C(=O)CCC(=O)NCCCCCN(O)C(=O)CCC(=O)NCCCCCN(O)C(C)=O)c(=O)c1=O)Nc1c(NCCCCCN(O)C(=O)CCC(=O)NCCCCCN(O)C(=O)CCC(=O)NCCCCCN(O)C(C)=O)c(=O)c1=O)NC(=O)[C@H](CCCCNc1c(NCCCCCN(O)C(=O)CCC(=O)NCCCCCN(O)C(=O)CCC(=O)NCCCCCN(O)C(C)=O)c(=O)c1=O)Nc1c(NCCCCCN(O)C(=O)CCC(=O)NCCCCCN(O)C(=O)CCC(=O)NCCCCCN(O)C(C)=O)c(=O)c1=O)C(=O)O)C(C)C [zirconium-89 labelled],,ex vivo gamma counting,"Sprague-Dawley rat, male, duodenum","intravenous, 1 nmol, 24 h",,tissue uptake,0.385 %ID/g and 0.382 %ID/g and 0.369 %ID/g and 0.283 %ID/g and 0.332 %ID/g
CC(=O)c1c(C)c2cnc(Nc3ccc(C4CCN(CCS(C)(=O)=O)CC4)cn3)nc2n(C2CCCC2)c1=O,,,beagle dog male and female,"oral gavage twice daily, 4 weeks",,lethal dose,20 mg/kg/day
C[C@]1(CO)Cc2ncn(-c3ccc(C#N)c(Cl)c3)c2C(=O)O1,,,"human, plasma","20 mg single dose, geometric mean",,AUC(0-inf),4.36 µM·h
CCN1[C@@H](C(=O)NC23CCC(C(=O)O)(CC2)CC3)[C@H](c2cccc(Cl)c2F)[C@]2(C(=O)Nc3cc(Cl)ccc32)C12CCCCC2,,,patients with advanced solid tumours,150 mg,,oral mucositis incidence,0%
COc1ccc(-c2c(-c3ccc(C#N)c(F)c3)nc(N3CCC(N)CC3)n(C)c2=O)cc1F,,measured: ≥1 grade 3-4 TRAE,human patients,"oral, dose not given, dose escalation",,grade 3-4 TRAE incidence,22%
CO[C@H]1C[C@@H]2CC[C@@H](C)[C@@](O)(O2)C(=O)C(=O)N2CCCC[C@H]2C(=O)O[C@H]([C@H](C)C[C@@H]2CC[C@@H](OC(=O)NCCOCCOCCOCCOCCOCCOCCOCCOCCC(=O)N3CCc4cc(Cn5nc(-c6ccc7oc(N)nc7c6)c6c(N)ncnc65)ccc4C3)[C@H](OC)C2)C[C@@H](O)[C@H](C)/C=C(\C)[C@@H](O)[C@@H](OC)C(=O)[C@H](C)C[C@H](C)/C=C/C=C/C=C/1C,,dose-escalation trial,patients with advanced solid tumours,"intravenous, all doses weekly, grade ≥3",,treatment-related anaemia incidence,9%
Clc1ccc(-c2ccccc2)cc1,,,"Sprague-Dawley rats, female, serum","inhalation, 23 µg/rat, 2 h after exposure",,calcium,8 ± 2 mg/dL
